Published values collected from several papers.
Parts stem from different laboratories: compare values within a part only. Changes are numbered by the printed parent chain.

Set 1 — method: protein-binding microarray; form: hairpin DNA; medium: in vitro; tested at: not given; relative to: not given; direction: higher = stronger binding; all sequences stand within: GAGGCC … GGCCTCACACTCTT
Target: POU domain, class 6, transcription factor 1, POU and homeodomain (POU6F1, Homo sapiens, UniProt Q14863, residues 311-611)
Setting: whole hairpin DNA, median over replicate spots
Target sequence (chain): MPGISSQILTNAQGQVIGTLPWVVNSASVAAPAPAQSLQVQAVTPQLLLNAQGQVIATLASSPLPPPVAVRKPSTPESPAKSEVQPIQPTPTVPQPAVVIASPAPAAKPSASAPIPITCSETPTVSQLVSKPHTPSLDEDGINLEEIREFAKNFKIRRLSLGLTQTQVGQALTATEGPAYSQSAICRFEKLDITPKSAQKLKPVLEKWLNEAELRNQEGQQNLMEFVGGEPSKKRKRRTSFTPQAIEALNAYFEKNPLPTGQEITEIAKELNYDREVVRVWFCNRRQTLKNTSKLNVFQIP
For `CGAATTAGGTGCCTCCTGGCACCTAATTCG`, the median fluorescence was 417 a.u.
For `ACAATGAGGTGCCTCCTGGCACCTCATTGT (5mC at 8)`, the median fluorescence was 478 a.u.
`ATACTGAGGTGCCTCCTGGCACCTCAGTAT` gave a median fluorescence of 347 a.u.
With `AAAATTAGGTGCCTCCTGGCACCTAATTTT` the median fluorescence was 602 a.u.
With `ATAATCGGGTGCCTCCTGGCACCCGATTAT (5mC at 30)` the median fluorescence was 602 a.u.
The median fluorescence of `ATAATGGGGTGCCTCCTGGCACCCCATTAT` is reported as 573 a.u.
`ATAATGAGCTGCCTCCTGGCAGCTCATTAT` has a median fluorescence of 3250 a.u.
With `CTAATTAGGTGCCTCCTGGCACCTAATTAG` the median fluorescence was 1530 a.u.

Set 2 — target: CCNA1, cyclin fold, Cln2 fusion (human); method: yeast growth competition, sequencing; medium: yeast; setting: strong parent motif; relative to: not given; direction: higher = stronger binding
Starting sequence: RBL2 docking peptide (human); STTRRRLFVENDS; partner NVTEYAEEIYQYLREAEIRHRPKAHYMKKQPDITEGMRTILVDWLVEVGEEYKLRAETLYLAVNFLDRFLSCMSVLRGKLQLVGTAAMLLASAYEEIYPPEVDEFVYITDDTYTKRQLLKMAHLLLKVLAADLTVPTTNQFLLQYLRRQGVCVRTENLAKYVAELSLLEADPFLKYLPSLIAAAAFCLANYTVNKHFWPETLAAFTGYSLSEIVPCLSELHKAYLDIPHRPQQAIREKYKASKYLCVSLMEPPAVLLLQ
For `STDRRRLFVENDS [T3D]`, “normalised enrichment score” read 0.101.
Under “normalised enrichment score”, `STTRRRLFNENDS [V9N]` is recorded as 0.997.
`STTRRRLFVVNDS [E10V]`: “normalised enrichment score” 0.651.
Under “normalised enrichment score”, `STTRGRLFVENDS [R5G]` is recorded as 0.0887.
`STTRRRLFSENDS [V9S]` — result for “normalised enrichment score”: 0.486.
For `STTRRRCFVENDS [L7C]`, “normalised enrichment score” read 0.465.
`STTRRRSFVENDS [L7S]`: “normalised enrichment score” 0.278.
Under “normalised enrichment score”, `STTRRWLFVENDS [R6W]` is recorded as 0.217.

Set 3 — method: RNA Bind-n-Seq; form: RNA; medium: in vitro; tested at: not given; setting: RNA with constant flanks, ends assumed; relative to: input RNA pool; direction: higher = stronger binding
Target: RING finger protein unkempt homolog, zinc fingers 1-6, GST-SBP tag (UNK, Homo sapiens, UniProt Q9C0B0, residues 30-357)
UniProt Q9C0B0, sequence (30-357, looked up): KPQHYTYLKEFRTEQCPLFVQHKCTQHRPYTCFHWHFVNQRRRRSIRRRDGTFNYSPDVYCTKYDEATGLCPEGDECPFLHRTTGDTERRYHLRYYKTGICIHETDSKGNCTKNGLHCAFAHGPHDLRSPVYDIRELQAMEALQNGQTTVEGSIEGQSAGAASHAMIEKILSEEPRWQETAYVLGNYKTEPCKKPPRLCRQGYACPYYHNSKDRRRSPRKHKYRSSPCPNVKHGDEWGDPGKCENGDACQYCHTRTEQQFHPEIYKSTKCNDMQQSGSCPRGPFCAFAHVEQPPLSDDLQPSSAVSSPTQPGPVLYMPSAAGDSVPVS
`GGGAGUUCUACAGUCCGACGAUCCCGGGACAGUGUGGCCGAGCAGAUGGCUAUGUGCUAGAGGGCAAAGAGUUGGAGUUCUAUCUCCGGAAAAUCAAGGCCCGCAAAGGCAAAUAAAUCCUUGUUUUGUCUUCACCCAUGUAACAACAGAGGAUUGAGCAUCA` gave a bound/input enrichment of 0.105 ratio.
`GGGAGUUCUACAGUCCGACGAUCCACAAACCUAAUGGACAGCAUGAGAUUUCCUUCAGCGUUGCAGAUACUGAAGUGACUUCCCGCAUAUCAAUCAAUUCUUCCGAUGUACCUGAAGUCACCCAGUCAGAGAAUGUUGGAUCACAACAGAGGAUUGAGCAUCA` gave a bound/input enrichment of 0.13 ratio.
`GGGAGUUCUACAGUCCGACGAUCCCAAAAUCUAUUCUUCAGUUGCCAGAGACAGAACUGGGAGAAUAUUCCCUAGGGGGCUACCGCAUUUCAUUUCUGAAGCAGCUUAUUGCUGGCAAGCUCCAGGAAUCUGUUCCAGACCCGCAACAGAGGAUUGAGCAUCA` has a bound/input enrichment of 0.216 ratio.
With `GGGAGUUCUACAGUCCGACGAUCAUCGUGGGAGCACUGAUGGCAAGUGGAAAAGAAGUAGCAGGAAAAAUUCCCAAAGGGAAGUCCGUCGACUUUGAAGCUAUGACAGCCCCUGGUUCAGAGGCCUUUAGCAAAGUCGCCAAACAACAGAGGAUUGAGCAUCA` the bound/input enrichment was 0.147 ratio.
`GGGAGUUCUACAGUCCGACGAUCUAAAUAAGUGUUUAAAAUAUAUAUAUACACCAAGGUUCCACCCUAAGAAAAAGGCUGGACCCGUUUCAGUCCGAGCCCUUAAAUAAUCCUUCUGUUUUUUUUUACGUUGAAUCUUUCUGCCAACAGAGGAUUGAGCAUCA` has a bound/input enrichment of 1.16 ratio.
For `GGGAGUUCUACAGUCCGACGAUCUCCGUAAACACAUUUUUGUUCUUAGUCUAUCUCUUGUACAAACGAUGUGCUUUGAAGAUGUCCGUGUAUAACAAUUGAUGUUUGUUUUCUGUUUGAUUUUAAACAGAGAAAAAAUAAAAGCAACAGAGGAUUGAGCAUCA`, the bound/input enrichment was 0.237 ratio.
For `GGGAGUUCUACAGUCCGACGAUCUUCAGAGUCACAGUUCCCUUUAUUUCACAUAAGCCCAAACUGAUAGACAGUAACGGUGUUCCGUUUUAUACUAUAUUUGUGCUAUUUAAUUCUUUCUAUUUUCACAAUUAUUAAAUUGUGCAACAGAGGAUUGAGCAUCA`, the bound/input enrichment was 1.23 ratio.
`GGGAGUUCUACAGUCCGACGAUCCAUUCUCUUAGUGAUGGGCUGGAGGAAGUCCAAAAAGCAGAAAUGAAAGCUUACAUGGAAUCCGUCAACAAUAUGCUGUUGACUGCAGAGCUGUAUCUUCAGUGGUGUGAUGAAGCUACACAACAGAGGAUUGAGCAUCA` has a bound/input enrichment of 0.113 ratio.

Single results of other studies
Under binding, `FRYEFTAPF` is recorded as “inactive” (HLA class I histocompatibility antigen, A alpha chain, allele A*80:01 (Homo sapiens, UniProt P04439); peptide-MHC binding; peptide; concentration not given).
